Measurements from different studies.
Every numbered part comes from another study and shows a few of its results, in no order. Changes are numbered by the printed parent chain.

Series 1 — method: aptamer microarray, sandwich; form: DNA with 2'F-ANA; matrix: in vitro; concentration: 200 nM; together with: Cy3 exosite-II aptamer, 400 nM; direction: higher = stronger binding; quantity: mean fluorescence intensity; oligonucleotide: GGTTGGTGTGGTTGG
Target: Prothrombin, mature alpha-thrombin (F2, Homo sapiens, UniProt P00734)
Setting: whole 15-mer aptamer, many near background
2'F-ANA at 1 2 3 5 8 9 10 12: 51.4 a.u.
2'F-ANA at 4 5 6 8 11 14: 43.6 a.u.
2'F-ANA at 1 3 4 6 7 9 13 14 15: 56.1 a.u.
2'F-ANA at 1 3 6 9 11 12 15: 350 a.u.
2'F-ANA at 1 4 5 11 13 14: 47.6 a.u.
2'F-ANA at 2 4 5 10 11 13 14: 58 a.u.
2'F-ANA at 1 9 10 11 12 13 15: 71 a.u.
2'F-ANA at 4 10 15: 86.2 a.u.
2'F-ANA at 1 2 3 4 5 7 8 9 11 12 13 15: 71.5 a.u.
2'F-ANA at 5 7 10 11 13 14 15: 47.8 a.u.
2'F-ANA at 3 6 7 10 12: 620 a.u.
2'F-ANA at 2 5 12: 196 a.u.
2'F-ANA at 2 3 5 6 8 12 13 14 15: 89.9 a.u.
2'F-ANA at 1 2 4 5 6 9 10 12 15: 48.9 a.u.
2'F-ANA at 1 2 4 5 6 8 9 13 15: 50.2 a.u.
2'F-ANA at 3 6 8 9 12 13: 1060 a.u.
2'F-ANA at 6 8 9 10 11 14 15: 93 a.u.
2'F-ANA at 2 3 4 5 6 7 8 9 10 12: 59.5 a.u.
2'F-ANA at 3 4 5 6 10 11 12 14 15: 48.3 a.u.
2'F-ANA at 1 2 4 6 7 10 11 12 15: 54.4 a.u.
2'F-ANA at 3 6 7 10 11 13 14: 456 a.u.
2'F-ANA at 2 4 5 6 7 11 13 15: 53.6 a.u.
2'F-ANA at 2 3 4 8 10 11 13: 215 a.u.
2'F-ANA at 5 7 8 9 10 13 15: 48.8 a.u.

Series 2 — method: RNAcompete; form: RNA; matrix: in vitro; concentration: 20 nM; setting: 7-mer, probes averaged, single round; baseline: mean of 7-mers; direction: higher = stronger binding; quantity: 7-mer Z-score
Target: PABPC1L2, full length, GST fusion (mouse, UniProt A0ABA7IW68)
Target sequence (chain): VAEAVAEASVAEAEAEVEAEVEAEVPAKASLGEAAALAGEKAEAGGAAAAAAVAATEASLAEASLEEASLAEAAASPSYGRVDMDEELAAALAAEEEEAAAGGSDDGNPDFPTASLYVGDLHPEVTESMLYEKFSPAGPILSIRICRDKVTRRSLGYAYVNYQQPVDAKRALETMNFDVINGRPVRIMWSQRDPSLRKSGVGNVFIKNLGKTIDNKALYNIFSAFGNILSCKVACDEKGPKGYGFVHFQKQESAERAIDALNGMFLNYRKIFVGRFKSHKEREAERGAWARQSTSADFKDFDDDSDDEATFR
UACCUCG: -0.443
UGGCGUA: -0.122
AUUCUAG: -0.211
AUAGCAU: 0.0189
GAACCAC: 0.0116
UAGAAAA: 4.64
GAAUUUA: 0.0841
GCUCACU: -0.266
CCAAAUC: -0.0736
GGCACGC: -0.0156
CAUUCCG: -0.28
UAUCCGG: -0.195
GAGGCGG: 0.198
AUCGUGA: -0.244
GAUGUUU: -0.418
AGACCGA: -0.0301
AGCCCAA: 0.0968
AACCAUU: -0.148
UUGAAUA: -0.0609
CUUAUGC: -0.304
GGCUGCU: -0.101
GGACAAG: 0.311
CAAUAGU: -0.195
GGAGUAU: 0.0497
UAGGCGG: 0.309

Series 3 — method: DHFR PCA, deep sequencing; matrix: yeast; together with: (+)-ABA 710 µM; baseline: wild-type fitted maximum; direction: higher = stronger binding; quantity: relative binding score
Target: ABI1, truncated, D143A, DHFR fusion (Arabidopsis thaliana)
Setting: methotrexate growth selection, single substitutions
Starting sequence: PYL1, truncated, DHFR fusion (Arabidopsis thaliana); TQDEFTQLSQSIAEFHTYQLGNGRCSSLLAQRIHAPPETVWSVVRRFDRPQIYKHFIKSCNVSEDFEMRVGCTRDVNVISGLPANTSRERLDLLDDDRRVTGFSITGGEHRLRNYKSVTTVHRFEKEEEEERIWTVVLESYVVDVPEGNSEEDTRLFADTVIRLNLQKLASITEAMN; partner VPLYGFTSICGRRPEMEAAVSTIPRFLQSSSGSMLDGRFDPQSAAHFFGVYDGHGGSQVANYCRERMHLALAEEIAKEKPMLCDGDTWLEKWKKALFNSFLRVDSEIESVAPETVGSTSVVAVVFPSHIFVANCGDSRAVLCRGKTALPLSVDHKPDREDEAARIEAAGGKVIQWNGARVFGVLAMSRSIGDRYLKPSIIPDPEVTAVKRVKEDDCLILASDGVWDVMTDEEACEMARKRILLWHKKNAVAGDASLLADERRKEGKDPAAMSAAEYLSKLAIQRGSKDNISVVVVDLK
V121K: 6.45%
K126H: 113%
E151V: 103%
Y18P: 107%
T173M: 92.2%
A84N: 41.9%
T73C: 99.3%
L156S: 102%
T101D: -20%
I33S: 47.8%
R163F: 53.9%
L20I: 102%
L20Y: 95.9%
N149Y: 49.9%
F15E: 68.8%
P37N: 69.4%

Series 4 — target: CCND2, cyclin fold, Cln2 fusion (human); method: yeast growth competition, sequencing; matrix: yeast; setting: weak parent motif; baseline: not given; direction: higher = stronger binding; quantity: normalised enrichment score
Starting sequence: RBL1 docking peptide (human); GSAKRRLFGEDPP; partner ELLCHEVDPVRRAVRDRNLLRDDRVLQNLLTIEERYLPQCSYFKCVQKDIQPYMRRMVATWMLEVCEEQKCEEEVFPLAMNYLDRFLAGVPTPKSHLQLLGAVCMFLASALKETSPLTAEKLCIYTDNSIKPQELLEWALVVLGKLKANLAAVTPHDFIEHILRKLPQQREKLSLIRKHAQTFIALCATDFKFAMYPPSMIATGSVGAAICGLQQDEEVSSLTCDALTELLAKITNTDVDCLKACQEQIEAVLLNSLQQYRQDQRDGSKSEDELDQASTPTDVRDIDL
S2W: -0.299
E10W: 0.211
R6F: 0.328
L7W: 0.431
R5A L7A: -0.224
G9E: 0.352
E10P: 0.117
G9H: 0.177
E10L: 0.344
G9N: 0.684
G9R: 0.0198
G1C: 0.0347
P12V: 0.418
G1A: 0.41
P13F: -0.0872
A3L: -0.0579
G9T: 0.465
A3P: 0.389
F8Y: 0.295
K4L: -0.184
G1K: 0.405
P12F: 0.0707
P12Y: 0.421
R6Y: 0.691
G1E: 0.0596

Series 5 — method: RNA Bind-n-Seq; form: RNA; matrix: in vitro; concentration: 200 nM; setting: whole 134-nt RNA, ends assumed; together with: 150 mM LiCl; baseline: input library; direction: higher = stronger binding; quantity: log2 enrichment; all molecules: 7-deaza-guanosine replaces G
Target: Fragile X messenger ribonucleoprotein 1, C-terminal low-complexity region (Fmr1, Mus musculus, UniProt P35922)
All sequences stand within: GGGAGUUCUACAGUCCGACGAUC … UGGAAUUCUCGGGUGUCAAGG
AAGAUUUAGAGAUGAAUUAAAUUUAAUUAGGGGUUGCUAAGAAGCGAGCACUGACCAGAUAAGAAUGCUGGUUUUCCUAAAUGCAGUGAA: -1.77
UAACUUUAGAGGAGGAUCUGAUGGAUCUGGCAGUGGACGUGGAUUUGGGGAUGGCUAUAAUGGGUAUGGAGGAGGACCUGGAGGUGGCAA: 0.0912
GCAGGAAGUAAAAACAAAUGGAAAUGCUUCGGAUAGUGGCAGGGGUGGGGGUUGCUAAGGAAAGGGUGGGAUGGGAUUGGGUAAAGAGUU: 1.26
GCAGGAAGUAAAAACAAAUGGAAAUGCUUCGGAUAGUGGCAGGGGUGGGGGUUGCUAAGGAAAGGGUUGGAUGGGAGUGGGUAAAGAGUU: 1.31
AGUCCUGUGCUACACAUCGUAUGUACCGAAUCGGGCCCCCGGCCCCCGGCCCCCGGGAAAGUAUUAUGUUACGCCGUUCGGAUCUGCACU: -0.725
CCUCAAGUCCUGUGCUACACAUCGUAUGUACCGAAUCGGAAAGGUGGUUUGGAAAGUAUUAUGUUACGCCGUUCGGAUCUGCACUUCCAG: -1.32
CAAGUCCUGUGCUACACAUCGUAUGUACCGAAUCGGAAAAAGGUGGUUUUUUUGGAAAGUAUUAUGUUACGCCGUUCGGAUCUGCACUUC: -1.67
GCAGGAAGUAAAAACAAAUGGAAAUGCUUCGGAUAGUGGCAGGGUUGGGGGUUGCUAAGGAAAGGGUGGGAUGGGAGUGGGUAAAGAGUU: 1.4
ACCAUGCAGGUGGGCAUCUUUGGGAAGUGGGGCAAGGGGGGGAUAGGGAGGGGGGUAACACUUUGGCAACAGGUGGUCCCAGGUCGUUUC: 1.24
CUCAAGUCCUGUGCUACACAUCGUAUGUACCGAAUCGGAGGAAAAAAAGGAGGAAAGUAUUAUGUUACGCCGUUCGGAUCUGCACUUCCA: -0.875
UUACUUUAGAGGAGGAUCUGAUGGAUAUGGCAGUGGACGUGGAUUUGGGGAUGGCUAUAAUGGGUAUGGAGGAGGACCUGGAGGUGGCAA: 0.488

Excerpt of the above (series 2):
CAAUAGU: -0.195
AUUCUAG: -0.211
GAGGCGG: 0.198
AGCCCAA: 0.0968
CAUUCCG: -0.28
AUCGUGA: -0.244
UACCUCG: -0.443
UGGCGUA: -0.122
GGCUGCU: -0.101
CCAAAUC: -0.0736
UAUCCGG: -0.195
UUGAAUA: -0.0609
